Results gathered from unrelated publications.
Every numbered part comes from another study and shows a few of its results, in no order.

Block 1 — technique: protein-binding microarray; form: double-stranded DNA, one strand shown; medium: in vitro; tested at: 2200 nM top; notes: 60-bp whole probe; together with: salmon DNA 0.4 mg/ml; relative to: random background probes; reading: higher = stronger binding; endpoint: fitted relative affinity; all sequences stand within: GCCTAGCAC … GTCTTGATTCGCTTGACGCTGCTG
Target: Interferon regulatory factor 7, full length, phosphomimetic (IRF7, Homo sapiens, UniProt Q92985, residues 1-503, S471D/S472D/S475D/S476D/S477D/S483D/S484D/S487D)
Sequence of UniProt Q92985 (whole entry, unmodified, looked up): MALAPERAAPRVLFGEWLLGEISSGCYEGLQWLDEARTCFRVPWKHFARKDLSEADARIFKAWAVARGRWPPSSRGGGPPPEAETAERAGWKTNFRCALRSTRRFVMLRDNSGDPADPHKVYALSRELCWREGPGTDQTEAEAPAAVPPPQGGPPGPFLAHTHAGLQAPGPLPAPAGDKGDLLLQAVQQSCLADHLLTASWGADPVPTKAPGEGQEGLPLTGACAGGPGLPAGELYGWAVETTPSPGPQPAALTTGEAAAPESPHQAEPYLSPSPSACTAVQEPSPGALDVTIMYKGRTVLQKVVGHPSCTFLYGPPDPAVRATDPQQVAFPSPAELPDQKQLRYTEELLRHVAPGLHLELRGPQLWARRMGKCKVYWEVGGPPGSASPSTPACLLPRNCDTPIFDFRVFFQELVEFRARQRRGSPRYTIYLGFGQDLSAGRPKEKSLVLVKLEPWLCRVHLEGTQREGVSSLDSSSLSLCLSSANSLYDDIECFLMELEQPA
TTAGGTTTCCTTCTCCATTAGTGCTAG: 2.37 z-score
TTAGGTTTCGGGAGTGGGTTAGTGCTA: 2.37 z-score
GACGGTTTCTTTCTCCTGACGTGCTAG: 2.83 z-score
TTAGGTATCGGAATCGGTTAGTGCTAG: 0.988 z-score
TTAGTTATCGACTTTCGGTTAGTGCTA: 6.69 z-score
CCGTAGCTTCCTTTCGCCGCGTGCTAG: 1.3 z-score
TCATTCTTTTTTTTCTTACTGTGCTAG: 2.27 z-score
TCATCATTGCCTATTTTTCAGTGCTAG: 1.69 z-score
TTAGGTCTCGGTTTCGGTGAGTGCTAG: 3.21 z-score
GACGATCTCAGTCTCGCGACGTGCTAG: 0.166 z-score
TTAGATCTCAGTTTAGATTAGTGCTAG: 0.292 z-score
TTAGGTATCGGTGTCGGTTAGTGCTAG: 0.65 z-score

Block 2 — technique: protein binding microarray; form: double-stranded DNA, one strand shown; medium: in vitro; tested at: not given; relative to: not given; reading: higher = stronger binding; endpoint: E-score
Target: Histone acetyltransferase KAT6A, winged helix 2, GST fusion (KAT6A, Homo sapiens, UniProt Q92794, residues 85-181)
Notes: 8-mer, flanks averaged, mean of 2 arrays, mostly near background
Construct (chain): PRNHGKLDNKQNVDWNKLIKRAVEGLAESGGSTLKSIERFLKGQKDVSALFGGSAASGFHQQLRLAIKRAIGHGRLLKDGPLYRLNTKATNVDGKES
CTTAATAC: -0.00326
AAGGTGCC: -0.00763
GAAGTCAC: -0.139
GGCCGAGA: 0.224
ACTGCTCG: 0.00535
GGTTTTGA: 0.18
CATCTCCC: -0.138
CGTCTCGC: 0.0228
TAAATTCA: -0.0159
CCACAGTA: -0.0447
CTTGGCGA: 0.0436
AGTACCCA: -0.18

Block 3 — technique: RNA Bind-n-Seq; form: RNA; medium: in vitro; tested at: 365 nM; relative to: no-protein control; reading: higher = stronger binding; endpoint: RBNS enrichment (R)
Target: RNA binding protein fox-1 homolog 2, RRM domain, GST-SBP tag (RBFOX2, Homo sapiens, UniProt O43251-10, residues 100-194)
Notes: natural RNA segment, single round, ends assumed
All sequences stand within: GGGAGUUCUACAGUCCGACGAUC … UGGAAUUCUCGGGUGCCAA
Residues (chain): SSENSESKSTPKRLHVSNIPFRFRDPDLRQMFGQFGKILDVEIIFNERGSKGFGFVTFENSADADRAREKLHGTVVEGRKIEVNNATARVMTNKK
GACCCUCUUCCCUCCACUGAGUGCUGGACAUUCGGAACCCAAGUUCUUAUGGACCUACGGAGGAGAGAGAGAAAGCUUUAUGUAUGGGGGAAAAAAAGAUACUUUUUUAU: 0.286
AUUACUGUUCAGCAUCAUCUUGGUUAUAUACUGAAAAUCAAACACUUUACUACAGUUGUGAAUUAGUUUAAACCGUACAAUGUUGUUAUCAUAUCAUGCUUCAACUAUUA: 0.347
CUAGGGCUGUAUUUACUGUCACACACAGGCACCGGUAAGUGACUUUACCGGUGAAAGUCACAGGUACCUUUAUCUAUGAUGAAUGUAAUGUGUUAGAUGGUGACCGAAGU: 0.231
CUCCCGGUGAAUAUUAUCAUAGGGCUUUAUUAUAUUCUUGGUCUUCAUUUCUGAUCAAGUAAAUACACCAGCAGUUGUCAUUCAAUGCAGGUUUUUGUACUUAAUUAUAU: 0.764
UGCCACCCAGAGCCUACCGGCACCAGCACAGGGUUCACACUACAGAGCAUCUGCGUGUGUUUGAGUUGGUUUCUGCUUCCGUUUCUGUUUUUGUUCUUUUUCUGAAGGUG: 0.462
UCAUUUCUAUUAUUCCAAUUUACUGAUAUGAACAAAUAGAAGGUCCGUGUGAGCAGACGCUCAGAACAGAGCCCUUGGCCCUUCGAGUUCUUUCUUACGAGUUUGCCGUU: 0.356
AAAAUAAAGUUGAGGCAGUUUUUGUGAAGAUAAUAUGGUUAGGGCUGGAGUGCACUAGUCUUUUUGCUUAUUCAUUUUGCAUGGUUUUAAAAUUAAAAAUAAUUCCGAAG: 2.36
AACUGAUACAUAGAACCAAGGAGCACUCAAAUAGGGAGCCAGGAGCCAGGGAGCUGGUGACACUUGUGUGCUGUGGGGCAGCUGGGAUCCAGGUAAGACCGGAUUGAAGC: 0.362
AGUUCUGAGAUGGAAAGUUGAAGGGGGCAAGCAAGACCUCUCCUCAGCCCAUGCCCAGCUGUCAGGAGAGAGGUGCAGGGAGGAAGGCCUUGUGCUGGGACAACCUCUCU: 0.635
UUAAAAAAAUAAUUGGUUGACUUAAUAUAUUUGCUUUUUUUCUCACCUGCACUUAGAGGAAAUUUGAACAAGUUGGAAAAAAACAAUUUUUGUUUCAAUUCUAAGAAACA: 2.18
CCCGAGCCUCAAGGCAAGUCCAGGACUCAGACCGGGGAGGCCCGGGCCAGCAGCUCCCAGUGUGACCUGACAAAAACACGUAGGGGCAGGGACGGUCCCCACCCCCAGGG: 0.234
UUUUUAAAGUCCUAGUAGAAAAAGUCAAAUACAUCUGCAUUUAAUUUAUGUCUGCAUAUUCUUCUAGCUGAAUUUUUGAUUUUACUACAUUUGAUAUUUUUCUUUUUAGU: 1.17

Mixed results
PPVIIKYIIINRF — enrichment score (human cyclin A2; peptide binding, competitive growth sequencing; peptide, Saccharomyces cerevisiae, cyclin A2-Cln2 fusion strain; mutational scanning library 2; direction not given): -0.0438

Repeated from above (block 2):
GAAGTCAC: -0.139
GGCCGAGA: 0.224
